Measurements pooled from the literature.
Each numbered part is a random draw from the data of one study; scales do not carry over between parts. Substitutions count along the parent as printed.

Set 1 — technique: universal PBM; molecule type: double-stranded DNA, one strand shown; medium: in vitro; concentration: not given; direction: higher = stronger binding
Target: Sal-like protein 4, full length isoform B (SALL4, Homo sapiens, UniProt Q9UJQ4-2, residues 1-616)
Setting: 8-mer, flanks averaged, mean of replicates
| Sequence | E-score |
| --- | --- |
| AGATGTGG | 0.0795 |
| AGCTGAAA | 0.118 |
| CACGGAAA | -0.0446 |
| AAGCTCAA | -0.0224 |
| CAAATTTA | 0.281 |
| CAACTGAG | -0.0361 |
| CTTGAGTA | 0 |
| GCGGTAGC | -0.232 |
| CGACACAC | 0.13 |
| GGTTCCCA | -0.169 |
| CTCGCTCC | -0.239 |
| ATGGACGA | 0.123 |
| GAAATGTA | 0.132 |

Set 2 — technique: protein binding microarray; molecule type: double-stranded DNA, one strand shown; medium: in vitro; concentration: not given; relative to: not given; direction: higher = stronger binding
Target: Histone acetyltransferase KAT6A, both winged helices, GST fusion (KAT6A, Homo sapiens, UniProt Q92794, residues 1-181)
Setting: 8-mer, flanks averaged, mean of 2 arrays, mostly near background
Target sequence (chain): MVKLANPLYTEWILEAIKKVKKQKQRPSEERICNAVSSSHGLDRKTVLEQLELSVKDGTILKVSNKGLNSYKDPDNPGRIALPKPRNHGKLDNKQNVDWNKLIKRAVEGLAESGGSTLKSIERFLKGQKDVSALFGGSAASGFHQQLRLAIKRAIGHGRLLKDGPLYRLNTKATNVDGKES
| Sequence | E-score |
| --- | --- |
| AGTGATAC | -0.105 |
| CCTGACGA | -0.126 |
| CCCTTACC | 0.0672 |
| ATTCTATA | 0.0251 |
| CACAACTA | 0.025 |
| CCAATCTC | -0.308 |
| GATTAGTA | -0.0432 |
| GCTGTCCA | -0.0418 |
| CATCGCAC | 0.00772 |
| ATAATCAC | 0.034 |
| ATCGGACA | 0.0505 |
| AGAAAATC | -0.0684 |
| TACTACTA | 0.0645 |
| AGTAGGAA | -0.204 |
| AACTGACC | -0.0507 |
| CCGGCTCG | 0.246 |
| AGCTAATG | -0.188 |

Set 3 — target: CCNB3, cyclin fold, Cln2 fusion (human); technique: yeast growth competition, sequencing; medium: yeast; setting: strong parent motif; relative to: not given; direction: higher = stronger binding
Parent: E2F1 docking peptide (human); PPVKRRLDFETDH; partner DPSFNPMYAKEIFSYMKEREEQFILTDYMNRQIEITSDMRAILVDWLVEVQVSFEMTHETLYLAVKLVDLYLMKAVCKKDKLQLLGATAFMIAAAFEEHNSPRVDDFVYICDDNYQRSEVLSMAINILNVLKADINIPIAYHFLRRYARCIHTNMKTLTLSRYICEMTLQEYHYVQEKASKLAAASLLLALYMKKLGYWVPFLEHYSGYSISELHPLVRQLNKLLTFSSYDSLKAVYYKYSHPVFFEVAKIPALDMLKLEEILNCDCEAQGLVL
| Substitution | normalised enrichment score |
| --- | --- |
| PPVKRRLDFETCH [D12C] | 3.24 |
| PPVKRNLDFETDH [R6N] | 0.433 |
| PPVKRRLDPETDH [F9P] | -0.193 |
| PPVKNRLDFETDH [R5N] | 0.239 |
| PPVKRRLDYETDH [F9Y] | 0.533 |
| PPVKRRLDFETRH [D12R] | 3.34 |
| PPVKRREDFETDH [L7E] | -0.00685 |
| PPIKRRLDFETDH [V3I] | 1.18 |
| PPVKRRLDFERDH [T11R] | 2.43 |
| PPVKLRLDFETDH [R5L] | 0.401 |
| PPVKRRLDMETDH [F9M] | 0.411 |
| PPVKRRLDFPTDH [E10P] | 1.43 |
| PPVKRRLDFETEH [D12E] | 2.65 |
| PPVKRRLDFLTDH [E10L] | 1.61 |
| PPVKRRLDRETDH [F9R] | -0.0803 |
| PPVKRRLDFWTDH [E10W] | 0.909 |
| PPVMRRLDFETDH [K4M] | 1.25 |
| PPVKRRLDFSTDH [E10S] | 2.9 |
| PPKKRRLDFETDH [V3K] | -0.124 |
| PPVKRRLDFEMDH [T11M] | 2.98 |
| PPVKRDLDFETDH [R6D] | -0.271 |

Set 4 — technique: RNA Bind-n-Seq; molecule type: RNA; medium: in vitro; concentration: 200 nM; setting: whole 134-nt RNA, ends assumed; together with: 150 mM KCl; relative to: input library; direction: higher = stronger binding
Target: Ras GTPase-activating protein-binding protein 1, full length (G3BP1, Homo sapiens, UniProt Q13283)
UniProt Q13283, sequence (whole entry, looked up): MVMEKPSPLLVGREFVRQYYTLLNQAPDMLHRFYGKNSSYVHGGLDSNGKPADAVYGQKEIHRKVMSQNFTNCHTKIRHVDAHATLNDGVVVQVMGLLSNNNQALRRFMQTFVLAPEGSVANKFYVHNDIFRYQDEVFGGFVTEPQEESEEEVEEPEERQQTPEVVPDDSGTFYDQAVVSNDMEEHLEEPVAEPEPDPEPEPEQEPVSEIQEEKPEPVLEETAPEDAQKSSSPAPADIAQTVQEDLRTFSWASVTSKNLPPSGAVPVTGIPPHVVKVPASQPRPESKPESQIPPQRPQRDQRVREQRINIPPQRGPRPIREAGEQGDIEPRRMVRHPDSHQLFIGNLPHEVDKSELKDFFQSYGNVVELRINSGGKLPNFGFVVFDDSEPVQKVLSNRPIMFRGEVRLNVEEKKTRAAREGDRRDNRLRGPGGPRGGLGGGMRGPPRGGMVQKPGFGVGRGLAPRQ
| Sequence | log2 enrichment |
| --- | --- |
| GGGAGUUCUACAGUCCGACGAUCACCAUGCAGGUGGGCAUCUUUGGGAAGUGGGGCAAGGGGGGGAUAGGGAGGGGGGUAACACUUUGGGAACAGGUGUUCCCAGGUCGUUUCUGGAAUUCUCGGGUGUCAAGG | 1.09 |
| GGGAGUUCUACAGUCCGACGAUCUCAAGUCCUGUGCUACACAUCGUAUGUACCGAAUCGGUUUGGUUUGGGUUUGGGGAAAGUAUUAUGUUACGCCGUUCGGAUCUGCACUUCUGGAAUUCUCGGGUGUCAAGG | -0.674 |
| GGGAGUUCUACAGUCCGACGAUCUAAAUUUAGAGGAGGAUCUGAUGGAUAUGGCAGUGGACGUGGAUUUGGGGAUGGCUAUAAUGGGUAUGGAGGAGGACCUGGAGGUGGCAAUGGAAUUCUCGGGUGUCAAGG | 0.276 |
| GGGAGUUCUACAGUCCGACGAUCCACAGACAACACGCACCCACACAGACACAGAGGGAAGGGGUUUGGAUGGGGACAGGGUGCACAGCAGGGCGGGGUAGGACCCCAGCCCCUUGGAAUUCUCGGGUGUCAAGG | 1.73 |
| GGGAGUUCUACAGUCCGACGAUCCUCAAGUCCUGUGCUACACAUCGUAUGUACCGAAUCGGGGUGGGGUGGGUGGGAAAGUAUUAUGUUACGCCGUUCGGAUCUGCACUUCCAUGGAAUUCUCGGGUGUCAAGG | 1.6 |
| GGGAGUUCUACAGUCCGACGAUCGCAGGAAGUAAAAACAAAUGGAAAUGCUUCGGAUAGUGGCAGGGGUGGGGGUUGCUAAGGAAAGGGUGGGAUGGGUGUGGGUAAAGAGUUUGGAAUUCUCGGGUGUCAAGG | 0.999 |
| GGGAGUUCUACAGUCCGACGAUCUAACUUUAGAGGAGGAUCUGAUGGAUAUGGCAGUGGACGUGGAUUUGGGGGUGGCUAUAAUGGGUAUGGAGGAGGACCUGGAGGUGGCAAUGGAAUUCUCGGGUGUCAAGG | 0.232 |
| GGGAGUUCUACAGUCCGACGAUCUAACUUUAGAGGAGGAUCUGAUGGAUAUGGCAGUGGACGUGGAUUUGGGCAUGGCUAUAAUGGGUAUGGAGGAGGACCUGGAGGUGGCAAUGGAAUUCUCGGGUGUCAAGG | 0.169 |
| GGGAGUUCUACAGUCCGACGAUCUGGCCCUGGUGGCAUGCGGGGAGGAAGAGGUGGCCGCAUGGAUCGUGGUGGUCCCGGUGGAAUGUUCAGAGGUGGCCGUGGUGGAGACAGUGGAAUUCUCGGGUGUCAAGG | 0.367 |

Set 5 — technique: protein-binding microarray; molecule type: double-stranded DNA, one strand shown; medium: in vitro; concentration: not given; direction: higher = stronger binding
Target: Max-binding protein MNT, bHLH-zipper, MAX partner unstated (MNT, Homo sapiens, UniProt Q99583, residues 220-300)
Setting: k-mer, scored over probes, only values ≥0.25
Residues (chain): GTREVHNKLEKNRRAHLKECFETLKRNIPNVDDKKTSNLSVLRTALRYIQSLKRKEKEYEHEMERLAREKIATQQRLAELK
| Sequence | E-score |
| --- | --- |
| CGCATGTC | 0.398 |
| ACGGCGTG | 0.403 |
| GCGTGCCC | 0.344 |
| CGTGTATC | 0.375 |
| AGAGCACG | 0.376 |
| ATCACGCG | 0.421 |
| GAACACGA | 0.302 |
| AACCATGT | 0.261 |
| CATGGGGC | 0.327 |
| GCGTGTCC | 0.367 |
| ACACATGT | 0.467 |
| ACCCCACA | 0.287 |
| ACACGAGG | 0.469 |

Excerpt of the above (set 2):
| Sequence | E-score |
| --- | --- |
| TACTACTA | 0.0645 |
| ATCGGACA | 0.0505 |
| ATTCTATA | 0.0251 |
| AACTGACC | -0.0507 |
| CACAACTA | 0.025 |
| CATCGCAC | 0.00772 |
| ATAATCAC | 0.034 |
